Literature values as cited in several papers.
Protocols differ between the studies behind these lines. ± marks the error that the study gave.
Sequence of UniProt Q9H093 (whole entry, looked up): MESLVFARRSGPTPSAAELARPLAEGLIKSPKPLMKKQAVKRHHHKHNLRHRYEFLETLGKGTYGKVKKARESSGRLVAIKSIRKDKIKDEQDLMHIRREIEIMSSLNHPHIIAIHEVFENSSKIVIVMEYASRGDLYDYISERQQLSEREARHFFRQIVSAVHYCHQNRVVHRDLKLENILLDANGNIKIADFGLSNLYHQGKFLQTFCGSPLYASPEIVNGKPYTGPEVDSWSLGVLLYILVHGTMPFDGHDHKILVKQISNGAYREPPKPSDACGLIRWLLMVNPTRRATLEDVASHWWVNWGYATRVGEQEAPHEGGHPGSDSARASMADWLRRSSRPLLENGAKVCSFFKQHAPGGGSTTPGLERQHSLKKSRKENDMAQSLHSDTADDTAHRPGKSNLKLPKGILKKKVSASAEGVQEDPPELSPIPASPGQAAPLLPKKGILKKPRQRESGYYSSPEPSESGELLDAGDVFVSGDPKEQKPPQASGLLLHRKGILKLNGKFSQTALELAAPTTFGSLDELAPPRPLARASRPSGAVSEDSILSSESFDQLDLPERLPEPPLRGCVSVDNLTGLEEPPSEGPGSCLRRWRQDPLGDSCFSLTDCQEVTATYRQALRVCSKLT

With `Oc1ccc(-c2nc(-c3ccc(OC4CCCC4)cc3)no2)cc1` the MIC was over 128 µg/mL (Streptococcus oralis; ATCC 9811).
For `O=c1c(O)c(-c2ccc(O)c(O)c2)oc2cc(O)cc(O)c12`, the IC50 was 3.83 µg/mL (varicella-zoster virus; viral replication).
`CCC1=C(CC)/C(=C/NC23CC4CC(CC(C4)C2)C3)N=C1c1ccc[nH]1` gave a parasitemia reduction of 100% (Plasmodium yoelii; Kenya MRA-428; 80 mg/kg, single dose, day 5).
`O=C(C1CCCCC1)N1CC(=O)N2CCc3ccccc3[C@@H]2C1` gave an EC50 of 0.007 µg/mL (Schistosoma haematobium; adult worms; 4 h).
`O=C(/C=C/c1ccc(O)c(O)c1)O[C@@H]1C[C@@](O)(C(=O)O)C[C@@H](O)[C@@H]1O` gave an IC50 of 7300 nM (hepatitis B virus; rcDNA level; HepG2.2.15).
With `CCCCc1ccc(-c2nc(C)c(/C(C)=N/NC(=N)N)s2)cc1` the IC50 was about 2 µg/mL (Enterococcus faecalis).
`Cc1cnc(N2CC3(CCOCC3)C2)c(C(=O)Nc2ccc(C(=O)N3CCc4cc(C(=O)Nc5c(C)cccc5F)sc4-c4ccccc43)cc2)c1` has a median IC50 of 0.00046 µg/mL (respiratory syncytial virus; cytopathic effect; 5 subtype A clinical isolates).
`Oc1c(I)cc(Cl)c2cccnc12`: “effective inhibitory concentration” 2.55 ± 0.25 µg/mL (Leishmania amazonensis).
`C[C@H](Cn1cnc2c(N)ncnc21)OCP(=O)(O)O` gave a virologic relapse of 72% (hepatitis B virus; measured: HBV DNA; human HBeAg-negative patients; dose not given, week 8, after discontinuation).
With `CC1(C)S[C@@H]2[C@H](NC(=O)[C@H](N)c3ccccc3)C(=O)N2[C@H]1C(=O)O` the MIC was over 16 µg/mL (Enterobacter cloacae; clinical isolate RKI-No_733/14).
The IC50 of `C=C1C(=O)O[C@@H]2/C=C(\C)CC/C=C(\C)CC[C@@H]12` is reported as 1000 nM (hepatitis B virus; HBsAg secretion; Hep3B).
For `CNC(C)C1CCC(N)C(OC2C(N)CC(N)C(OC3OCC(C)(O)C(NC)C3O)C2O)O1` (stereo not drawn), the MIC was over 8 µg/mL (Enterobacter cloacae; clinical isolate RKI-No_460/16).
Under fecundity, `COc1cccc(C(=O)NN(C(=O)c2cc(C)cc(C)c2)C(C)(C)C)c1C` is recorded as “decreased” (Anopheles gambiae; G3, females; topical, concentration not given).
`[N-]=[N+]=N[C@]1(CO)O[C@@H](n2ccc(N)nc2=O)[C@@H](F)[C@@H]1O` gave an EC50 of 24 nM (hepatitis C virus; viral replication; 2209-23 HCV replicon cells).
Under “AUC24h/MIC for bactericidal effect”, `O=C(O)[C@H]1O[C@@H](Oc2cc3oc(-c4ccccc4)cc(=O)c3c(O)c2O)[C@H](O)[C@@H](O)[C@@H]1O` is recorded as 1.49 h (Mycoplasmoides gallisepticum; concentration not given).
For `COC(=O)C1=C(CN2CC(F)(F)C[C@H]2C(=O)O)NC(c2nccs2)=N[C@H]1c1ccc(F)cc1Cl`, the EC50 was 6.4 nM (hepatitis B virus; viral replication; HepG2.2.15 cells).
`O=C(/C=C/c1ccc(O)c(O)c1)O[C@@H]1C[C@](O)(C(=O)O)C[C@@H](OC(=O)/C=C/c2ccc(O)c(O)c2)[C@H]1O` has an IC50 of 158000 nM (hepatitis B virus; viral antigen level, measured: HBeAg).
With `Nc1cc(C(F)(F)F)c(-c2nc(N3CCOCC3)nc(N3CCOCC3)n2)cn1` the remaining activity was 100% (NUAK2 (Homo sapiens, UniProt Q9H093); enzyme activity; 10 µM; baseline: untreated).

Some of these lines once more:
For `O=c1c(O)c(-c2ccc(O)c(O)c2)oc2cc(O)cc(O)c12`, the IC50 was 3.83 µg/mL (varicella-zoster virus; viral replication).
